Experimental data from different studies.
Protocols differ between the studies behind these lines. Values joined by “and” are separate records of one study, mostly repeats; a detail may differ. Numbers after ± are the reported error.

| SMILES | assay | system | setting | scale | quantity | result |
| --- | --- | --- | --- | --- | --- | --- |
| C[C@H](NCc1ccc(-c2ccc(C(F)(F)F)cc2)cc1)C(N)=O | passive avoidance, acquisition | APP/PS1 mice | oral, 10 mg/kg, 336 h, 2 weeks dosing | – | step-through latency | 33.2 ± 6.94 s |
| CC(C)C[C@@H]1NC(=O)[C@@H](Cc2c[nH]c3ccccc23)NC(=O)[C@H](CCCNC(=N)N)NC(=O)[C@@H](CCC(=O)O)NC(=O)[C@H](CCC(N)=O)NC(=O)[C@@H](CCC(=O)O)NC(=O)[C@H](CCCNC(=N)N)NC(=O)[C@@H](Cc2c[nH]c3ccccc23)NC1=O | measured: IL7 | LDLr-/- mouse on Western diet, liver | dose not given, 4 weeks | – | cytokine level | 230 ± 110 pg/g tissue |
| N=C(N)NCCC[C@H](NC(=O)[C@H](Cc1c[nH]c2ccccc12)NC(=O)[C@H](CCCNC(=N)N)NC(=O)[C@H](CCCNC(=N)N)NC(=O)[C@@H]1CCCN1C(=O)[C@H](CCCCN)NC(=O)[C@@H](N)CCCNC(=N)N)C(=O)N[C@@H](Cc1c[nH]c2ccccc12)C(=O)N[C@@H](Cc1c[nH]c2ccccc12)C(=O)N1CCC[C@H]1C(=O)N[C@@H](CCCCN)C(=O)N[C@@H](CCCNC(=N)N)C(=O)N1CCC[C@H]1C(=O)O | absorbance at 734 nm | – | 1 mg/mL, 5 min, room temperature | – | ABTS radical scavenging | 0.724 fraction (0-1) |
| CCN(Cc1ccccc1)C(=O)CCc1nc(CN2CCN(C(=O)Cc3ccc(OC)c(OC)c3)CC2)no1 | current clamp | DRG neurons, naive rat | 10 µM | – | rheobase | 525 ± 93 pA |
| COc1ccccc1-c1n[nH]c2nc(N[C@H]3CC[C@H](NS(=O)(=O)CC(C)C)CC3)ncc12 | bead binding, competition bead pull-down, measured: LINJ.02.0420 | Leishmania donovani extract | 10 µM | relative to: vehicle | relative abundance | 0.83 |
| O=C(O)c1ccc(-c2nc(-c3ccccc3Cl)c3sccn23)cc1 | – | C57BL/6 mice | dose not given, day 26, basal hematopoiesis | – | platelet count change | 84.8% and 134% and 104% |
| COc1ccccc1-c1n[nH]c2nc(NC3CCN(C(=O)Cc4ccc(F)cc4F)CC3)ncc12 | bead binding, competition bead pull-down, measured: LINJ.35.4540 | Leishmania donovani extract | 10 µM | relative to: vehicle | relative abundance | 0.94 |
| CCCC[C@@H]1NC(=O)[C@H](Cc2ccc(O)cc2)NC(=O)[C@@H]2CCCN2C(=O)[C@H](CC(=O)O)NC(=O)[C@H](C)NC(=O)[C@H](Cc2ccccc2)NC(=O)[C@@H]2CSCCC(=O)N3CN(CN(C3)C(=O)CCSC[C@@H](C(=O)N[C@@H](C)C(N)=O)NC1=O)C(=O)CCSC[C@H](NC(C)=O)C(=O)N[C@@H](CC(C)(C)C)C(=O)N1CCC[C@H]1C(=O)N[C@@H](CCC(=O)O)C(=O)N[C@H](CCCCNC(=O)CCc1cn(CCOCCOCCOCCN(CCOCCOCCOCCC(=O)N[C@H]3CSCCC(=O)N4CN5CN(C4)C(=O)CCSC[C@H](NC(=O)[C@@H](CC(=O)O)NC(=O)[C@H](Cc4cccc6ccccc46)NC(=O)[C@@H]4CCCN4C3=O)C(=O)N[C@@H](CCSC)C(=O)N[C@@H](CCCCNC(=N)N)C(=O)N[C@@H](CC(=O)O)C(=O)N[C@@H](Cc3c[nH]c4ccccc34)C(=O)N[C@@H](CO)C(=O)N[C@@H]([C@@H](C)O)C(=O)N3CCC[C@H]3C(=O)N3C[C@H](O)C[C@H]3C(=O)N[C@@H](Cc3c[nH]c4ccccc34)C(=O)N[C@H](C(N)=O)CSCCC5=O)CCOCCOCCOCCn3cc(CCC(=O)NCCCC[C@H]4NC(=O)[C@H](CCC(=O)O)NC(=O)[C@@H]5CCCN5C(=O)[C@H](CC(C)(C)C)NC(=O)[C@@H](NC(C)=O)CSCCC(=O)N5CN6CN(C5)C(=O)CCSC[C@H](NC(=O)[C@H](Cc5ccc(O)cc5)NC(=O)[C@@H]5CCCN5C4=O)C(=O)N[C@@H](Cc4ccccc4)C(=O)N[C@@H](C)C(=O)N[C@@H](CC(=O)O)C(=O)N4CCC[C@H]4C(=O)N[C@@H](Cc4ccc(O)cc4)C(=O)N[C@@H](CCCC)C(=O)N[C@H](C(=O)N[C@@H](C)C(N)=O)CSCCC6=O)nn3)nn1)C(=O)N1CCC[C@H]1C(=O)N[C@@H](Cc1ccc(O)cc1)C(=O)N2 | NanoString, measured: Runx1-mRNA | mouse bearing MC38-Nectin-4 tumour, circulating white blood cells | 5 mg/kg, 24 h after dosing, unit not given | relative to: vehicle | mRNA level | 1.36 |
| CCc1nnc(-c2c(OC)cc(-c3cnc4cc(-c5cnn(C)c5)ccn34)cc2OC)o1 | histomorphometry | male C57BL/6J mouse, tibia | oral gavage, 10 mg/kg once daily, 3 wk | – | mineralizing surface/bone surface | 0.729 ± 0.09% |
| NNC(=O)c1ccccc1 | hydrazine ligation kinetics, absorbance | – | concentration not given, 40 s, added: 2-formylphenylboronic acid | – | normalised absorbance | 0.759 |
| O=C1NC2(CC2)COc2ncc(F)cc2[C@H]2COCCN2c2ccn3ncc1c3n2 | – | Sprague-Dawley rat, female, ovaries | oral, 5 mg/kg/day, 4 weeks, end of treatment | – | organ-to-body weight ratio | 0.037 ± 0.006% |
